Published values gathered from unrelated publications.
Several values in a cell are separate wells, animals, samples, runs or records. ± marks the error that the study gave.
Chain of UniProt P06276 (whole entry, looked up): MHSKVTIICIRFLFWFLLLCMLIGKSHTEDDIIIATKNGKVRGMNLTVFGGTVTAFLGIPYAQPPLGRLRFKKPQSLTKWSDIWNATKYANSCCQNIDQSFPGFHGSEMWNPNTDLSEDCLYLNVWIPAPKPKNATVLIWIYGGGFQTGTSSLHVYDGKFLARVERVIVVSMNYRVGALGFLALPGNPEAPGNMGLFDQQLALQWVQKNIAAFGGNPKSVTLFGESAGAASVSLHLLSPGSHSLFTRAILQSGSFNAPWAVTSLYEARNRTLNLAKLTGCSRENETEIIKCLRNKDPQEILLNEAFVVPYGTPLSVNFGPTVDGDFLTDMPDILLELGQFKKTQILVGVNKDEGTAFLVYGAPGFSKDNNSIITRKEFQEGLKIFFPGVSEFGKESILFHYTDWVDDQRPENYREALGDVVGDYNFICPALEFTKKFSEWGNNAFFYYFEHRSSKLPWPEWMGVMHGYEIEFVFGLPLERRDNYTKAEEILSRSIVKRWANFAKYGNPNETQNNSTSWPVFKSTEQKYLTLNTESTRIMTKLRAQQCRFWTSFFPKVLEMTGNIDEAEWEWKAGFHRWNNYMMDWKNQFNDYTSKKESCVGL
Chain of UniProt P81908 (whole entry, looked up): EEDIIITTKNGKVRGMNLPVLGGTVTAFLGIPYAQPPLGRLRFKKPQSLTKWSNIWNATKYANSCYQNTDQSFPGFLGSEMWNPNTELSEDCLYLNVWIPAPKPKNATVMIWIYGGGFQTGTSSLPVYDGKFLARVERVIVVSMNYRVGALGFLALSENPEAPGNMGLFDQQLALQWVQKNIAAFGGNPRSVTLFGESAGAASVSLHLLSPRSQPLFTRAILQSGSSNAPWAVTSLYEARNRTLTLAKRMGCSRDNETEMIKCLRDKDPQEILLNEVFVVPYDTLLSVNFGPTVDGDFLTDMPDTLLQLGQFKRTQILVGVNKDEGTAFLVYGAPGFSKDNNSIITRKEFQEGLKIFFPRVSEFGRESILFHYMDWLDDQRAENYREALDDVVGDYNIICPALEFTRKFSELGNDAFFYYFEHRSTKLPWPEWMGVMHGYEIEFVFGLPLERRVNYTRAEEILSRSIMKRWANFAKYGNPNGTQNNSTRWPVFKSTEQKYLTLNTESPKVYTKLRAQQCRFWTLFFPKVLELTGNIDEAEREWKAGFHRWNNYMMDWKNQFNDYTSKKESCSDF
Chain of UniProt O14730 (whole entry, looked up): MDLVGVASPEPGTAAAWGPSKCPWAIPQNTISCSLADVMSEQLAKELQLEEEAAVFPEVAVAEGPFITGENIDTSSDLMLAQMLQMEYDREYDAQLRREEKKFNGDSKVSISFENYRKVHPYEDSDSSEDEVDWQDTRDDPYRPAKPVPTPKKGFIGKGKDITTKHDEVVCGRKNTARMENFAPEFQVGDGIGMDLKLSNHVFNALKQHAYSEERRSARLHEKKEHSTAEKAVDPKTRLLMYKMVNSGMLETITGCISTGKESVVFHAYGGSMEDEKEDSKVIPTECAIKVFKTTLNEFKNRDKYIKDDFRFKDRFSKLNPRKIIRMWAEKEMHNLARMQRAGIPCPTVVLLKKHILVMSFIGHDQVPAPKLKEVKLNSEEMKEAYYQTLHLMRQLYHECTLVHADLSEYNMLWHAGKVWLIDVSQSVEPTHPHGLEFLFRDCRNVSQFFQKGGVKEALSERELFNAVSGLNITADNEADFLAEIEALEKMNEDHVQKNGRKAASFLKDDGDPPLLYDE
Chain of UniProt P18508 (whole entry, looked up): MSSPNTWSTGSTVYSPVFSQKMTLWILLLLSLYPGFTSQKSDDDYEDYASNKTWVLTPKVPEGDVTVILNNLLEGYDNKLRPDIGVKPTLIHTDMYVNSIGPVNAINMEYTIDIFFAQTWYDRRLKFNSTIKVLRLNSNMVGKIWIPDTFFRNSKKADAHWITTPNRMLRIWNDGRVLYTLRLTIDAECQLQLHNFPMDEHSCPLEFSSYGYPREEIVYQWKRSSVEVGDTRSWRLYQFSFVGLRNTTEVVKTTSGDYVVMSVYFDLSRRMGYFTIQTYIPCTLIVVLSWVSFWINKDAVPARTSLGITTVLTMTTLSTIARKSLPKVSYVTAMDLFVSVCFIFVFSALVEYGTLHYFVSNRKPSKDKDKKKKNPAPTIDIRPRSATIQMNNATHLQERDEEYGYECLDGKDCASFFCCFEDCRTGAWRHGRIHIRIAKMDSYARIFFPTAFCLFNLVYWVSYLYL
Chain of UniProt O00429 (whole entry, looked up): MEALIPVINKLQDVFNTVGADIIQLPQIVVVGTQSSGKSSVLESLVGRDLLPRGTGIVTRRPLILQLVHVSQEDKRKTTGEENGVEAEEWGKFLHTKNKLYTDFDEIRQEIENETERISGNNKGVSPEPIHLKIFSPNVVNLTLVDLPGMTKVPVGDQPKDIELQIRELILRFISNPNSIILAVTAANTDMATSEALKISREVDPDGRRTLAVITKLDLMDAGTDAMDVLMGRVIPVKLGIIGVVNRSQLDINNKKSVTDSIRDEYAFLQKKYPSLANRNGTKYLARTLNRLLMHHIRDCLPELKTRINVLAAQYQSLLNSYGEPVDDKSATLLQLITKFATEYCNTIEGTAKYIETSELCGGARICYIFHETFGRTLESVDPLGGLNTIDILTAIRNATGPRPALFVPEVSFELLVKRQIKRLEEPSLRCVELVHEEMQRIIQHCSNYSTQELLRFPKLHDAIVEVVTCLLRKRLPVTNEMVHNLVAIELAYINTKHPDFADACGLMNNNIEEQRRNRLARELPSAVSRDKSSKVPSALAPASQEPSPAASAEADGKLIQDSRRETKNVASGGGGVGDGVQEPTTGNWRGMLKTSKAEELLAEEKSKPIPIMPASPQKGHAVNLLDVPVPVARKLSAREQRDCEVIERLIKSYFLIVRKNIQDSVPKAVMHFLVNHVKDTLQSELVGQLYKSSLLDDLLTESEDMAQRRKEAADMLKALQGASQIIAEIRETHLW
Chain of UniProt O43283 (whole entry, looked up): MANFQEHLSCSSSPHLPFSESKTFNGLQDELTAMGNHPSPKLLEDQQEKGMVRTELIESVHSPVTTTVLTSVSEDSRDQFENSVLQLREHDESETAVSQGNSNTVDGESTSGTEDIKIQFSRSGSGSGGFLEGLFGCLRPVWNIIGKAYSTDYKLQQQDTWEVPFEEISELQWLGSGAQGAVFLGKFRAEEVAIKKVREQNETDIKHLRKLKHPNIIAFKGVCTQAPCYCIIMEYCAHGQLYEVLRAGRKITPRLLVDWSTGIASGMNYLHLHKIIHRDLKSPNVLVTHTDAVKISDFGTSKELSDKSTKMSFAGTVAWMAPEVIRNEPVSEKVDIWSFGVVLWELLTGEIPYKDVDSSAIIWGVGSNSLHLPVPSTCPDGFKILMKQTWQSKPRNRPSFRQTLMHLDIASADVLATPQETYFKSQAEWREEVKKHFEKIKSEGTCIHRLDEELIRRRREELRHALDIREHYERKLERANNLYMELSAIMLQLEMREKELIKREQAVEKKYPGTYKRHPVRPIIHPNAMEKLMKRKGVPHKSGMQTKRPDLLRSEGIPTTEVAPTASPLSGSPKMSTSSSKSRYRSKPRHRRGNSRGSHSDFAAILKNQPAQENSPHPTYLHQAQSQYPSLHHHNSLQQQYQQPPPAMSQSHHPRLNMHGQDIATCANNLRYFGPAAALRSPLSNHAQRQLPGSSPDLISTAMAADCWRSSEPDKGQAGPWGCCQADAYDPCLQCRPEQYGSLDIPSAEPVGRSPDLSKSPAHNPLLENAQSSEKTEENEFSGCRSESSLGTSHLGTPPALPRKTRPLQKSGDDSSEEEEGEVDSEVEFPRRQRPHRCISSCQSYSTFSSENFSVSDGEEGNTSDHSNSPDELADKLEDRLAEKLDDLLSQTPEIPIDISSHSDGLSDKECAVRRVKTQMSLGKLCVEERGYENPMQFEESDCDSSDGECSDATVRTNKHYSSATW
Chain of UniProt Q6GMN2 (whole entry, looked up): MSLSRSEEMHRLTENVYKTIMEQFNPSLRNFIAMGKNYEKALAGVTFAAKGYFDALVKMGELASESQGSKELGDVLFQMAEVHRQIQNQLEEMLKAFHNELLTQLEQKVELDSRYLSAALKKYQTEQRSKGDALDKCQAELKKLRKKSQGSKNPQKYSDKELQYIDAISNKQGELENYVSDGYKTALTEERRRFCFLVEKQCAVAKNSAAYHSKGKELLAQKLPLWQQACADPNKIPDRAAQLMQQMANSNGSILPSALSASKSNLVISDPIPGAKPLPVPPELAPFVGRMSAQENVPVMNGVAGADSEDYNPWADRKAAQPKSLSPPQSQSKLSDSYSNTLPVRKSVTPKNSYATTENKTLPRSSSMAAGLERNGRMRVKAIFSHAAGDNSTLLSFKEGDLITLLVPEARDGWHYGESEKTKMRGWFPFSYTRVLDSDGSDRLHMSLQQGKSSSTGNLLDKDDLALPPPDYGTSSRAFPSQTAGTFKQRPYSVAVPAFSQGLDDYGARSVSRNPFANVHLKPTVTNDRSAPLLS
Chain of UniProt Q9UEE5 (whole entry, looked up): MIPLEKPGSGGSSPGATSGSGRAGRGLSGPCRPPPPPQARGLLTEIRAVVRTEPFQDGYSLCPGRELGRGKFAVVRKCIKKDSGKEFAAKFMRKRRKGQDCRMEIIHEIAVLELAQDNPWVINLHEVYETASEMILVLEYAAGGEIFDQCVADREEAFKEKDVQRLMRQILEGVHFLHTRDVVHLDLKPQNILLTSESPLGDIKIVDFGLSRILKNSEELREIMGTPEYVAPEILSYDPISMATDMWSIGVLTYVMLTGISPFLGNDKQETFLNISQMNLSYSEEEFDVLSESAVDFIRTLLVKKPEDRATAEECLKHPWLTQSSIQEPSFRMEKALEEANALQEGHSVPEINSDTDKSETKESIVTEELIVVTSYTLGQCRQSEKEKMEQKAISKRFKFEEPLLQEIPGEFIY

The efficacy of `CN(C)CCN(Cc1ccsc1)c1ccccn1` is reported as -83.6 ± 9.47% (Cholinesterase (BCHE, Homo sapiens, UniProt P06276); concentration not given, Triton).
The ΔS of `Nc1ncnc2c1ncn2[C@@H]1O[C@H](COP(=O)(O)OP(=O)(O)NP(=O)(O)O)[C@@H](O)[C@H]1O` is reported as 10.6 cal/mol/K (Cell cycle histidine kinase CckA, cytoplasmic region (Caulobacter vibrioides, UniProt Q9X688); ITC; with: c-di-GMP 100 µM).
`CC[C@@H](C)[C@@H](NC(=O)[C@@H](Cc1ccc(O)cc1)NC(=O)[C@H]1CCCN1C(=O)[C@@H](CCCNC(=N)N)NC(=O)[C@H](N)Cc1c[nH]cn1)C(=O)N[C@H](C)C(=O)N[C@H](Cc1c[nH]cn1)C(=O)N[C@H](CCCNC(=N)N)C(=O)N[C@H](CCCCNC(=O)c1cccc(S(=O)(=O)F)c1)C(=O)N[C@H](Cc1ccc(O)cc1)C(=O)N[C@H](CO)C(=O)N[C@H](Cc1ccccc1)C(N)=O`: “surface TFRC expression” 0.74 (Transferrin receptor protein 1 (Tfrc, Mus musculus, UniProt Q62351); flow cytometry; DC2.4; 6 h, pH 7.4, unit not given; reference: 0 h).
`CN(C)[C@@H](CCOc1cccc2ccccc12)c1ccccc1` has an efficacy of -89.5 ± 11.2% (Cholinesterase (BCHE, Homo sapiens, UniProt P06276); concentration not given, Triton).
`CCOC(=O)COc1ccc2c(=O)c3ccccc3oc2c1` gave a reaction velocity of 0.0024 a.u. (ache (Electrophorus electricus, UniProt O42275); enzyme activity; 3.36 µM, with: substrate 3.45 mM; higher = faster reaction).
The potency ratio of `OC1CCN(c2ncnc3[nH]cc(-c4cccc(Cl)c4)c23)CC1` is reported as over 13 fold (LRRK2 (Homo sapiens, UniProt Q5S007); NanoBRET; cells; reference: PF-06447475, fold lower potency).
For `CC1(C)S[C@@H]2[C@H](NC(=O)[C@H](N)c3ccccc3)C(=O)N2[C@H]1C(=O)O`, the kinact/KI was 15000 ± 1300 M⁻¹ s⁻¹ (Penicillin-binding protein 1A (pbpA, Streptococcus pneumoniae, UniProt Q8DR59); inhibitor).
`COc1cc(Nc2ncc(F)c(Nc3ccc4c(n3)NC(=O)C(C)(C)O4)n2)cc(OC)c1OC` gave an inhibition of 87% (RIOK3 (Homo sapiens, UniProt O14730); KINOMEscan; 10 µM).
For `CN(C(=O)n1cnc(-c2ccc[n+]([O-])c2)c1)C1CCCCC1`, the fold change was -5.7 (Abhydrolase domain-containing protein 11 (Rattus norvegicus, UniProt D3ZXK4); enzyme activity, ABPP; rat, brain; oral, 100 mg/kg/day, 28 days; reference: vehicle).
`CC[N+](CC)(CC)CCOC(=O)C(C1CCCC1)C1CCCC1` gave an efficacy of -89.4 ± 2.95% (Cholinesterase (BCHE, Homo sapiens, UniProt P06276); concentration not given, Triton).
With `Nc1nc2c(ncn2[C@H]2C[C@H](O)[C@@H](COP(=O)(O)OP(=O)(O)OP(=O)(O)O)O2)c(=O)[nH]1` the kcat was 0.0253 ± 0.00367 s⁻¹ (Gag-Pol polyprotein, reverse transcriptase (gag-pol, Human immunodeficiency virus type 1 group M subtype B, UniProt P04585, K653A); nucleotide misincorporation, steady-state kinetics; K66A RT, with: matched template/primer, template T).
For `CC1=CC(=O)C(C)=C(C)C1=O`, “P+QA− recombination rate” read 1.47 s⁻¹ (Reaction center protein M chain, QA site (pufM, Cereibacter sphaeroides, UniProt P0C0Y9); charge recombination; Rhodobacter sphaeroides, LDAO detergent solution; pH 7.8, 298 K, quinone reconstituted in QA site).
`CC(=O)N[C@@H](C)C(=O)N1CCC[C@H]1C(=O)N[C@@H](CC(C)C)C(=O)N[C@H](C(=O)N[C@@H](CCCNC(=N)N)C(=O)NCC(=O)N[C@@H](CO)C(=O)N[C@@H](CS)C(=O)N[C@@H](CCCNC(=N)N)C(=O)N[C@@H](CCCCN)C(=O)N[C@@H](CCCNC(=N)N)C(=O)N[C@@H](CC(N)=O)C(=O)N[C@@H](CCCNC(=N)N)C(=O)N[C@@H](CO)C(=O)N1CCC[C@H]1C(=O)N[C@@H](CCC(=O)O)C(=O)N[C@@H](CCCNC(=N)N)C(N)=O)[C@@H](C)O` has a ΔG of -6.88 kcal/mol (WDR5 (Homo sapiens, UniProt P61964); binding, isothermal titration calorimetry; pH 7.0, 20 °C).
With `O=C(Nc1cccnn1)N1CCC(=Cc2cccc(Oc3ccc(C(F)(F)F)cn3)c2)CC1` the inhibition was 15% (STK17A (Homo sapiens, UniProt Q9UEE5); kinase activity, inhibitor; 10 µM, human).
With `CCNC(=O)NCCCOc1cccc(CN2CCCCC2)c1` the efficacy was -59.5 ± 8.35% (Cholinesterase (BCHE, Homo sapiens, UniProt P06276); concentration not given, Triton).
For `O=C1NC(=O)[C@](CNC(=O)c2cnn(-c3ccccc3)n2)(C2CC2)N1`, activity read “inactive” (Plasminogen (PLG, Homo sapiens, UniProt P00747); inhibitor; concentration not given).
`[2H]c1c([2H])c([C@]2([2H])CCCN2C(=O)C(C)(C)Oc2ccc3cn[nH]c3c2)c([2H])c([2H])c1C([2H])([2H])[2H]` has a remaining binding of 87% (MAP3K13 (Homo sapiens, UniProt O43283); KINOMEscan; 1 µM; reference: DMSO control).
`O=C(O)c1ccc2nc(-c3cc(Cl)cc(Cl)c3)oc2c1` — result for “probe binding remaining”: 16% and 19.6% and 13.9% (Transthyretin (TTR, Homo sapiens, UniProt P02766); fluorescent probe exclusion; human serum; 10 µM, 1 days, ratio 6:00:00).
`CC1(C)CC(=O)c2cc3c(C#N)cn(Cc4ccccc4)c3nc2C1` — result for “IC50 fold change”: 17 (Gag-Pol polyprotein, reverse transcriptase (gag-pol, Human immunodeficiency virus type 1 group M subtype B, UniProt P04585); DNA polymerase activity, inhibitor, FRET; reference: mutant over wild type RT).
`O=C1c2ccncc2C(=O)c2c1[nH]c1ccccc21`: GTPase activity “inhibited” (DNM1L (Homo sapiens, UniProt O00429); inhibitor, recombinant protein; concentration not given).
With `CC(C)C[C@@H](C=O)NC(=O)[C@H](CC(C)C)NC(=O)[C@H](CC(C)C)NC(=O)OCc1ccccc1` the AUC ratio was 1.39 (Gag-Pol polyprotein, integrase (gag-pol, Human immunodeficiency virus 1, UniProt P12497); integrase multimerization, BiFC flow cytometry; 10 µM; reference: DMSO).
The activation of `CN1CCN(c2cc(-c3ccncc3)c(-c3ccc4ccccc4c3)nn2)CC1` is reported as 4.2% (CHRM4 (Homo sapiens, UniProt P08173); agonist, FLIPR; 12.5 µM).
`COc1ccc(N2C(=O)N(c3c(C)cccc3Cl)Cc3cnc(Nc4ccc(C5CCN(C)CC5)cc4OC)nc32)nc1` has an inhibition of 68% (FGFR1 (Homo sapiens, UniProt P11362); kinase activity; 0.5 µM).
`CCCCC/C=C\C/C=C\C/C=C\C/C=C\CCCC(=O)NCCO` — result for “maximal open probability”: 0.83 ± 0.09 (Trpv1 (Mus musculus, UniProt Q704Y3, T551S); ion current, agonist, whole-cell patch clamp; T551S; reference: 3 mM 2-APB).
`Clc1cccc(-c2cccc(Cl)c2)c1` gave a maximum activity of 14% (Androgen receptor (AR, Homo sapiens, UniProt P10275); reporter gene, antagonist; 40 µM, with: DHT 2 nM; reference: DHT 2 nM).
`COc1cc(/C=C/C(=O)NC2CCN(Cc3ccccc3)CC2)ccc1OC(=O)N1CCCC1` has a selectivity ratio of 0.9 (Cholinesterase (BCHE, Equus caballus, UniProt P81908); Ellman; equine serum BuChE; reference: AChE IC50 over BuChE IC50).
`CN(C(=O)n1cnc(-c2ccc[n+]([O-])c2)c1)C1CCCCC1` has an inhibition of 4% (CCKBR (Homo sapiens, UniProt P32239); radioligand binding; 10 µM).
`COc1cc(N)c(Cl)cc1C(=O)NC1CN2CCC1CC2` (centres unmarked) — result for “log2 fold change”: -0.312 (GPR37L1 (Homo sapiens, UniProt O60883); β-arrestin recruitment, TANGO luminescence; concentration not given; reference: basal luminescence).
For `COc1cccc(OC)c1C(=O)N[C@@H]1C(=O)N2[C@@H]1SC(C)(C)[C@@H]2C(=O)O`, the kinact/KI was 780 ± 65 M⁻¹ s⁻¹ (Penicillin-binding protein 2B (Streptococcus pneumoniae, UniProt P0A3M6); inhibitor).
With `CC(C)[C@@H](O)CC[C@@H](C)[C@H]1CC[C@H]2[C@@H]3CC=C4C[C@@H](O)CC[C@]4(C)[C@H]3CC[C@]12C` the current response was 176 ± 7.9% (Glutamate NMDA receptor; GRIN1/GRIN2B (GRIN1/GRIN2B, Homo sapiens, UniProt Q05586+Q13224, M555A); positive allosteric modulator, two-electrode voltage clamp; Xenopus oocytes expressing GluN1-M555A; 10 µM, 0.02% cremophor, with: 100 µM glutamate and glycine; reference: without compound).
`C[C@H]1CN(c2n[nH]c3nc(N[C@H]4CC[C@H](NS(=O)(=O)CCC(F)(F)F)CC4)ncc23)CCO1` has a remaining binding of 1.01 (Zinc transporter 7 (Homo sapiens, UniProt Q8NEW0); Kinobeads competition, measured: SLC30A7; 0.16 µM, unit not given; reference: vehicle).
`O=C(Nc1cnccc1Cl)N1CCN(Cc2ccc3c(c2)OC(F)(F)O3)CC1` has a probe labelling of -1.9 (BAR/IMD domain-containing adapter protein 2 (Baiap2, Rattus norvegicus, UniProt Q6GMN2); competitive ABPP with azido-FP probe, measured: BAIAP2; rat brain membrane fraction; 1 µM, unit not given; reference: DMSO).
`CCCCCCCCCC(=O)N[C@@H](CCCN=C(N)N)C(=O)N[C@H](C(=O)N[C@@H](CCCCN)C(=O)N[C@@H](CCCN=C(N)N)C(=O)CCl)C(C)C` gave a Hill slope of -1.19 (Furin (FURIN, Homo sapiens, UniProt P09958); enzyme activity, inhibitor).
With `CC[C@H](C)[C@H]1O[C@]2(C=C[C@@H]1C)C[C@@H]1C[C@@H](C/C=C(\C)[C@@H](O[C@H]3C[C@H](OC)[C@@H](O[C@H]4C[C@H](OC)[C@@H](O)[C@H](C)O4)[C@H](C)O3)[C@@H](C)/C=C/C=C3\CO[C@@H]4[C@H](O)C(C)=C[C@@H](C(=O)O1)[C@]34O)O2` the maximal response was 72% (GABA-A receptor; alpha-1/beta-2/gamma-2 (Rattus norvegicus, UniProt P18508+P62813+P63138); membrane potential, agonist, QP-DHM fluorescence; HEK293 expressing GABAA; reference: GABA).
`CCN(C)C(=O)Oc1ccc(CCC(=O)N(CC)Cc2ccccc2)cc1OC` gave a selectivity ratio of 1.1 (Cholinesterase (BCHE, Equus caballus, UniProt P81908); Ellman; equine serum BuChE; reference: AChE IC50 over BuChE IC50).
`COC(=O)c1ccc(NS(=O)(=O)c2c(C)[nH]c(C)c2C(=O)N2CCC(F)(F)C2)cc1Cl` gave an Imax of 95 ± 4% (DRD3 (Homo sapiens, UniProt P35462); β-arrestin recruitment, agonist, PathHunter; reference: dopamine).
`C[C@H](CCC(=O)N[C@@H](CCC(=O)O[C@H]1C[C@H](n2cc(F)c(=O)[nH]c2=O)O[C@@H]1CO)C(=O)O)[C@H]1CC[C@H]2[C@@H]3[C@H](O)C[C@@H]4C[C@H](O)CC[C@]4(C)[C@H]3CC[C@]12C` gave a normalised Vmax of 0.0187 (SLC10A1 (Homo sapiens, UniProt Q14973); uptake, substrate; HEK293 expressing NTCP; reference: taurocholate).
For `O=C(c1ccc(Cl)cc1)N1CCN2C(=O)N(OC(=O)N3CCOc4ccccc43)C(=O)C2C1` (centres unmarked), “mean protein ratio” read 0.95 (Kallikrein-6 (Homo sapiens, UniProt Q92876); MS-based ABPP; SW-620 conditioned medium; 10 µM, 1 h, 37 °C; reference: compound over DMSO, lower = more inhibition).
